Experimental data collected from several papers.
A part holds a random share of what one study measured.

Study 1
Target: Interferon regulatory factor 5, full length, phosphomimetic (IRF5, Homo sapiens, UniProt Q13568-2, residues 1-514, S451D/S453D/S456D/S462D)
Technique: protein-binding microarray
Molecule type: double-stranded DNA, one strand shown
Sample: in vitro
Concentration: 940 nM top
Setting: 60-bp whole probe
Together with: salmon DNA 0.4 mg/ml
Baseline: random background probes
Reading: higher = stronger binding
All sequences stand within: GCCTAGCAC … GTCTTGATTCGCTTGACGCTGCTG
| Sequence | fitted relative affinity [z-score] |
| --- | --- |
| GAAAATTAGTGTTTTGCCCTGTGCTAG | -0.254 |
| TTAGGTTTCGGGTATCGGTCAGTGCTA | 11.2 |
| TTAGAACTGTGGTATCGATTAGTGCTA | 3.58 |
| TCAGTGGTCTGTTTCTGACTGTGCTAG | 0.293 |
| GACGATTTCGGGCATCGAGACGTGCTA | 0.147 |
| TAAGATTTCGGGTTTCGATTAGTGCTA | 5.78 |

Study 2
Target: Histone acetyltransferase KAT6A, winged helix 2, GST fusion (KAT6A, Homo sapiens, UniProt Q92794, residues 85-181)
Technique: protein binding microarray
Molecule type: double-stranded DNA, one strand shown
Sample: in vitro
Concentration: not given
Setting: 8-mer, flanks averaged, mean of 2 arrays, mostly near background
Baseline: not given
Reading: higher = stronger binding
Target sequence (chain): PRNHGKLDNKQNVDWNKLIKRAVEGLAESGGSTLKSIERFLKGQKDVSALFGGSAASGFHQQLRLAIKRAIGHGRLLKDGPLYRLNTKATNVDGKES
| Sequence | E-score |
| --- | --- |
| CAGTATGA | -0.0488 |
| ATTTGGGG | 0.00248 |
| CCTTCTCG | -0.0384 |
| ATTTATGA | 0.0598 |
| TCCATGAA | 0.00242 |
| ATCCTGCG | 0.174 |

Study 3
Target: Sal-like protein 4, full length isoform A (SALL4, Homo sapiens, UniProt Q9UJQ4, residues 1-1053)
UniProt Q9UJQ4, sequence (whole entry, looked up): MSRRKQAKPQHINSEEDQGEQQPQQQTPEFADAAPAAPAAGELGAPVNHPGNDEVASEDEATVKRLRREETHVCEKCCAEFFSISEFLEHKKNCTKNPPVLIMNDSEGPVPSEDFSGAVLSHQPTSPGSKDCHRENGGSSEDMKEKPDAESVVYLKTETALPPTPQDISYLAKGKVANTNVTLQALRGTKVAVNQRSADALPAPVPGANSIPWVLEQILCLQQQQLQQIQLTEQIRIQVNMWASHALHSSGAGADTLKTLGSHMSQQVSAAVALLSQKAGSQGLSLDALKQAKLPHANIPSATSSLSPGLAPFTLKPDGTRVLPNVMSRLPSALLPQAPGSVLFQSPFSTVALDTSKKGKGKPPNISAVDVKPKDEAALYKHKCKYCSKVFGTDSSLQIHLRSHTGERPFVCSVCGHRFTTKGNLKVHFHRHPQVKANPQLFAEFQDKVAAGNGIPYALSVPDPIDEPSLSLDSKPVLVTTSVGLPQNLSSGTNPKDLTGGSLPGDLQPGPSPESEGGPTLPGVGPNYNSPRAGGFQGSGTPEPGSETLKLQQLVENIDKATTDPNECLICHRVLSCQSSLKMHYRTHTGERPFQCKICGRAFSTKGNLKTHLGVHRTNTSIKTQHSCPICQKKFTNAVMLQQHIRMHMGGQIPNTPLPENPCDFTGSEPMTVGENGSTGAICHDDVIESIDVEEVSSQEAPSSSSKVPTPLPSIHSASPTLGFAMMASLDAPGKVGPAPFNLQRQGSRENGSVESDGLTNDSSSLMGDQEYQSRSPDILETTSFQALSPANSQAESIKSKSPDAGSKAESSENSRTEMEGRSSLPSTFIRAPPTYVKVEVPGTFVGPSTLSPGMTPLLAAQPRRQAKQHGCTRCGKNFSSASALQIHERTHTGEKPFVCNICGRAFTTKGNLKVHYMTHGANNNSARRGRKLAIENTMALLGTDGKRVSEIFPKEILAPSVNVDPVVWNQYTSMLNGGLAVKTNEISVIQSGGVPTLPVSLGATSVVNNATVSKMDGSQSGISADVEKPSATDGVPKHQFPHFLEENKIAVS
Technique: universal PBM
Molecule type: double-stranded DNA, one strand shown
Sample: in vitro
Concentration: 600 nM
Setting: 8-mer, flanks averaged, mean of replicates
Reading: higher = stronger binding
| Sequence | E-score |
| --- | --- |
| CTAATTAA | 0.294 |
| ACGCACAC | 0.0205 |
| CTTACGTA | 0.169 |
| AATGCGAC | 0.0343 |
| ATGATTGA | 0.225 |
| CAACTAGA | 0.133 |

Mixed results
| Molecule | target | assay | test system | conditions | scale | quantity | value |
| --- | --- | --- | --- | --- | --- | --- | --- |
| PhoQ, residues 284 288 289 292 302 303 SCEHLI | PhoP, residues 12 14 15 18 19 SQCLL (Escherichia coli, UniProt P23836) | Sort-seq, refers to: YFP reporter | E. coli | PhoQ-PhoP variant library, together with: 10 µM Mg2+ | baseline: high Mg2+ state, higher = stronger signaling | fold induction | 13.2 |

Some of these lines once more (study 2):
| Sequence | E-score |
| --- | --- |
| ATTTGGGG | 0.00248 |
